# Measurements gathered from unrelated publications.
# Each line is one published result; not all experiments were run side by side. “And” joins repeats or separate records; there may be more than shown. ± gives the spread as reported.
SMILES,target or system,assay,system,conditions,how to read,endpoint,result
Nc1ccc2cc3ccc(N)cc3nc2c1,,,"male CD-1 mouse, lungs","oral, 100 mg/kg",,AUC(0-t),18800 ng·h/mL
CC[C@H](C)[C@@H]1NC(=O)[C@@H]2CSSC[C@H](NC(=O)[C@H](CCCNC(=N)N)NC(=O)[C@@H]3CSSC[C@H](NC1=O)C(=O)N[C@@H]([C@@H](C)O)C(=O)N[C@@H](CCCNC(=N)N)C(=O)NCC(=O)N[C@@H](Cc1ccccc1)C(=O)N3)C(=O)N[C@@H](CC(C)C)C(=O)N[C@H]1CSSC[C@H](NC(=O)[C@H](C(C)C)NC(=O)CNC(=O)[C@H](CCCNC(=N)N)NC(=O)[C@H](CCCNC(=N)N)NC1=O)C(=O)N[C@@H](CCCNC(=N)N)C(=O)N2,,,"Sprague-Dawley rat, female, lung","5 mg/kg, perivascular, peribronchiolar",direction not given,lung eosinophilic infiltration score,1 to 3
C[C@]1(CO)Cc2ncn(-c3ccc(C#N)c(Cl)c3)c2C(=O)O1,,,"human, plasma","10 mg single dose, geometric mean",,AUC(0-inf),2.53 µM·h
CC(C)(C)c1cc(-n2nc3ccccc3n2)c(O)c(C(C)(C)C)c1,,exposure assessment,"human, age 1-2 years",spray sunscreen,,mean daily dermal uptake,6.92 ng/kg body weight/day
CC[C@H](C)[C@H](NC(=O)CN)C(=O)NCC(=O)N[C@@H](CCCCN)C(=O)N[C@@H](Cc1ccccc1)C(=O)N[C@@H](CC(C)C)C(=O)N[C@@H](Cc1c[nH]cn1)C(=O)N[C@@H](CO)C(=O)N[C@@H](C)C(=O)N[C@@H](CCCCN)C(=O)N[C@@H](CCCCN)C(=O)N[C@@H](Cc1ccccc1)C(=O)NCC(=O)N[C@@H](CCCCN)C(=O)N[C@@H](C)C(=O)N[C@@H](Cc1ccccc1)C(=O)N[C@H](C(=O)NCC(=O)N[C@@H](CCC(=O)O)C(=O)N[C@H](C(=O)N[C@@H](CCSC)C(=O)N[C@@H](CC(N)=O)C(=O)N[C@@H](CO)C(N)=O)[C@@H](C)CC)C(C)C,,UPLC,TFA water/acetonitrile gradient,,longer = more hydrophobic,retention time,2.12 min
c1cc2ccc3ccc4ccc5cccc6c(c1)c2c3c4c56,,,fresh water,"12 (unit not given), 20 °C, S30-2 sampler, 30 µm",,log K(PDMS-water),5.51 ± 0.08
CCCCCCCCCCCCCCCC(=O)NCCO,Plasmodium falciparum,,W2,,,IC50,3.98 µM
CC[C@@H](C)[C@@H](NC(=O)[C@@H](Cc1ccc(O)cc1)NC(=O)[C@H]1CCCN1C(=O)[C@@H](CCCNC(=N)N)NC(=O)[C@H](N)Cc1c[nH]cn1)C(=O)N[C@H](C)C(=O)N[C@H](Cc1c[nH]cn1)C(=O)N[C@H](CCCNC(=N)N)C(=O)N[C@H](CCCCNC(=O)c1cccc(S(=O)(=O)F)c1)C(=O)N[C@H](Cc1ccc(O)cc1)C(=O)N[C@H](CO)C(=O)N[C@H](Cc1ccccc1)C(N)=O,,,10% human serum,1 h,,remaining compound,108% and 109%
N.N.[Cl][Pt][Cl],,,mouse xenograft model,"dose not given, day 6",,body weight,23 g and 21 g and 22 g and 20 g and 24 g
O=C(CCCN1CC=C(n2c(=O)[nH]c3ccccc32)CC1)c1ccc(F)cc1,Plasmodium falciparum,,3D7,,,IC50,3.16 µM
Clc1ccc(Cl)c(-c2cc(Cl)ccc2Cl)c1,,,Sprague Dawley rat,"intraperitoneal, 100 mg/kg, 3 weeks",,body weight,175 g
CO[C@H]1C[C@@H]2CC[C@@H](C)[C@@](O)(O2)C(=O)C(=O)N2CCCC[C@H]2C(=O)O[C@H]([C@H](C)C[C@@H]2CC[C@@H](OC(=O)NCCOCCOCCOCCOCCOCCOCCOCCOCCC(=O)N3CCc4cc(Cn5nc(-c6ccc7oc(N)nc7c6)c6c(N)ncnc65)ccc4C3)[C@H](OC)C2)C[C@@H](O)[C@H](C)/C=C(\C)[C@@H](O)[C@@H](OC)C(=O)[C@H](C)C[C@H](C)/C=C/C=C/C=C/1C,,,patients with advanced solid tumours,"intravenous, 10 mg weekly, any grade",,nausea incidence,50%
N=C(N)NCCC[C@@H](NC(=O)[C@@H](N)Cc1ccccc1)C(=O)N[C@@H](Cc1ccccc1)C(=O)N[C@@H](CCCCN)C(N)=O,,LC-MS,human,"15 mg, 5.833 h",,median amount excreted in urine,5.25e+06 ng
CC(C)CC(=O)OC[C@H]1O[C@@](C#N)(c2ccc3c(N)ncnn23)[C@H](O)[C@@H]1O,,plasma protein binding,rat plasma,0.9 µM,,unbound fraction,0.0794
CN1CCN(c2ccc(Nc3nccc(-c4ccccc4)n3)cc2C(F)(F)F)CC1,,,zebrafish embryos,"25 µM, 5 d",,toxicity,0 ± 7.4%
O=[N+]([O-])c1cc2c3c(ccc2c2ccccc12)[C@H](O)[C@@H](O)C=C3,,measured: adenoma mammary tumours,female Sprague-Dawley rats,"intramammary, 12.3 µmol per rat, up to 32 weeks",,tumours per rat,0.17 ± 0.64
C[C@@H]1NC(=O)[C@H](CCCCNC(=O)CO/N=C/C(=O)NCCCC[C@@H]2NC(=O)[C@@H](Cc3ccccc3)NC(=O)[C@H](CC(=O)O)NC(=O)CNC(=O)[C@H](CCCNC(=N)N)NC2=O)NC(=O)CNC(=O)[C@@H]2CCCN2C(=O)[C@H](CCCCNC(=O)CO/N=C/C(=O)NCCCC[C@@H]2NC(=O)[C@@H](Cc3ccccc3)NC(=O)[C@H](CC(=O)O)NC(=O)CNC(=O)[C@H](CCCNC(=N)N)NC2=O)NC(=O)[C@H](CCCCNC(=O)CCNC(=O)CCNC(=O)CCNC(=O)[C@H](CCCCN)NC(=O)[C@H](Cc2ccccc2)NC(=O)CNC(=O)CN2CCCNCCNCCCNCC2)NC(=O)[C@H](CCCCNC(=O)CO/N=C/C(=O)NCCCC[C@@H]2NC(=O)[C@@H](Cc3ccccc3)NC(=O)[C@H](CC(=O)O)NC(=O)CNC(=O)[C@H](CCCNC(=N)N)NC2=O)NC(=O)CNC(=O)[C@@H]2CCCN2C(=O)[C@H](CCCCNC(=O)CO/N=C/C(=O)NCCCC[C@@H]2NC(=O)[C@@H](Cc3ccccc3)NC(=O)[C@H](CC(=O)O)NC(=O)CNC(=O)[C@H](CCCNC(=N)N)NC2=O)NC1=O [copper-64 labelled],,,"normal mice, stomach","intravenous, 0.74 MBq, 24 h post-injection",,tissue uptake,0.7 ± 0.12 %ID/g
C[C@@H](NC(=O)N1C(=O)[C@H](Cc2ccnc(N)c2)[C@H]1C(=O)O)C1CCCCC1,,,healthy adult Chinese volunteers,"continuous intravenous infusion, 1.0 mg/kg/h, 5-day infusion, CTCAE 5.0 grading",,incidence of serious AEs,0%
COc1cc(C2C3=C(COC3=O)N(CCO)c3cc4c(cc32)CCC4)cc(OC)c1OC (stereo not shown),,,female Sprague-Dawley rats,"intraperitoneal, 100 mg/kg, 24 h, single dose, mean",,body weight,204 g
O=C(O)CCCOc1ccc(F)cc1-c1cc(-c2ccccc2C(F)(F)F)n(-c2ccccc2)n1,,,"male Crl:CD(SD) rats, thymus","intravenous, 25 µg/kg, 14 d",,organ weight,0.47 ± 0.11 g
C1=Cc2nc1cc1ccc([n-]1)c(-c1ccccc1)c1nc(cc3ccc([n-]3)c2-c2ccccc2)C=C1.CC(=O)[O-].[Mn+3],,LC-MS/MS,"Sprague-Dawley rat, plasma","oral gavage, dose not given, 240 min, individual rat Rat2",,plasma concentration,109 ng/mL
Clc1ccc(Cl)c(-c2cccc(Cl)c2Cl)c1,,,PDMS-water partitioning,PCB compilation,reference: maximum over minimum K,literature range factor,2
COc1cccc(Oc2ccccc2NC(=O)CNC(=O)c2cccc3ccccc23)c1,,,"esterase-deficient SCID mice, male, blood","oral, 15 mg/kg/day, 14 days, toxicity study",reference: white cells,eosinophils,1.4% and 3% and 0%
CCOc1cc(Oc2ccc(C(F)(F)F)cc2Cl)ccc1[N+](=O)[O-],,,rat male,"31.25 mg/kg, 8 days",,body weight gain,72.8%
CC(=O)c1c(C)c2cnc(Nc3ccc(C4CCN(CCS(C)(=O)=O)CC4)cn3)nc2n(C2CCCC2)c1=O,,,"human, plasma","oral, 25 mg, day 1 single dose",,elimination rate constant,1.39e-05 s⁻¹
COc1ccnc(C(=O)N[C@H]2COC(=O)[C@H](Cc3ccccc3)[C@@H](OC(=O)C(C)C)[C@H](C)OC2=O)c1OCOC(=O)C(C)C,,,rat,"oral, acute",,LD50,> 2000 mg/kg
COc1cc2c(Oc3ccc4[nH]c(C)cc4c3F)ccnc2cc1OCC1(N)CC1,,,paediatric recurrent refractory sarcoma,8 mg,,grade 1 or 2 Thrombocytopenia,0%
CC(C)C[C@@H]1NC(=O)CNC(=O)[C@H](CC(N)=O)NC(=O)[C@H](CCCCN)NC(=O)[C@H]([C@@H](C)O)NC(=O)[C@@H]2CSSC[C@@H]3NC(=O)[C@H]([C@@H](C)O)NC(=O)CNC(=O)CNC(=O)[C@H](C(C)C)NC(=O)[C@@H]4CSSC[C@H](NC(=O)[C@H]([C@@H](C)O)NC(=O)[C@H](CSSC[C@H](NC(=O)[C@H](C(C)C)NC(=O)[C@@H]5CCCN5C1=O)C(=O)NCC(=O)N[C@@H](CCC(=O)O)C(=O)N[C@@H]([C@@H](C)O)C(=O)N4)NC(=O)CNC(=O)[C@@H]1CCCN1C(=O)[C@H]([C@@H](C)O)NC(=O)[C@H](CC(N)=O)NC3=O)C(=O)N[C@@H](CO)C(=O)N[C@@H](Cc1c[nH]c3ccccc13)C(=O)N1CCC[C@H]1C(=O)N[C@@H](C(C)C)C(=O)N2,,HPLC,water,"180 µM, 14 days, 37 °C, deamidation stability",,remaining peptide,98.1 ± 0.3%
Cc1cc(C)c(CNC(=O)c2cc(Cl)c3c(c2C)O[C@@](C)([C@H]2CC[C@H](N(C)C)CC2)O3)c(=O)[nH]1,,,"human, relapsed/refractory NHL","concentration not given, all TEAEs, grade 5",,Diarrhoea incidence,0%
Clc1ccc(Cl)c(-c2cc(Cl)ccc2Cl)c1,,,fresh water,"20 °C, S30-1 sampler, 30 µm",,log K(PDMS-water),5.48 ± 0.07
CC/C(=C(\c1ccccc1)c1ccc(OCCN(C)C)cc1)c1ccccc1,,,"CD-1 mouse, male, plasma","intraperitoneal, 1 mg/kg",,Tmax,2 h
